Experimental data of several laboratories.
Every numbered part comes from another study and shows a few of its results, in no order.

Series 1
Target: Prothrombin, mature alpha-thrombin (F2, Homo sapiens, UniProt P00734)
Method: aptamer microarray, sandwich
Form: DNA with 2'F-ANA
Medium: in vitro
Concentration: 200 nM
Setting: whole 15-mer aptamer, many near background
Together with: Cy3 exosite-II aptamer, 400 nM
Direction: higher = stronger binding
Oligonucleotide: GGTTGGTGTGGTTGG
Modification | mean fluorescence intensity
2'F-ANA at 3 4 5 6 10 14 | 47.9 a.u.
2'F-ANA at 1 4 5 7 8 9 10 11 | 45.2 a.u.
2'F-ANA at 1 2 3 5 6 7 9 10 | 45.5 a.u.
2'F-ANA at 2 6 10 11 12 13 14 | 81.3 a.u.
2'F-ANA at 1 2 6 8 9 10 11 14 15 | 46.9 a.u.
2'F-ANA at 1 2 6 8 11 13 14 | 57.3 a.u.
2'F-ANA at 2 4 13 14 15 | 112 a.u.
2'F-ANA at 1 2 3 4 6 7 9 11 12 13 | 160 a.u.
2'F-ANA at 1 2 3 6 7 10 12 13 14 15 | 59.1 a.u.
2'F-ANA at 1 2 3 4 5 6 11 12 | 94.6 a.u.
2'F-ANA at 1 2 3 4 6 9 | 138 a.u.
2'F-ANA at 2 4 6 7 9 11 15 | 186 a.u.
2'F-ANA at 1 2 3 4 5 6 12 | 134 a.u.
2'F-ANA at 3 4 10 11 14 15 | 198 a.u.
2'F-ANA at 1 3 4 5 6 7 10 14 | 48.4 a.u.
2'F-ANA at 1 3 5 7 9 11 12 13 14 | 44.3 a.u.
2'F-ANA at 5 8 9 11 14 15 | 42.9 a.u.
2'F-ANA at 3 4 5 6 7 9 10 11 12 13 14 15 | 60 a.u.
2'F-ANA at 1 4 5 7 8 9 10 12 14 | 48.2 a.u.
2'F-ANA at 2 3 4 8 10 13 14 | 190 a.u.
2'F-ANA at 2 3 6 7 8 10 12 13 | 381 a.u.

Series 2
Target: RNA binding protein fox-1 homolog 2, RRM domain, GST-SBP tag (RBFOX2, Homo sapiens, UniProt O43251-10, residues 100-194)
Method: RNA Bind-n-Seq
Form: RNA
Medium: in vitro
Concentration: 365 nM
Setting: natural RNA segment, single round, ends assumed
Reference: no-protein control
Direction: higher = stronger binding
Shared flanks, not repeated: GGGAGUUCUACAGUCCGACGAUC … UGGAAUUCUCGGGUGCCAA
Residues (chain): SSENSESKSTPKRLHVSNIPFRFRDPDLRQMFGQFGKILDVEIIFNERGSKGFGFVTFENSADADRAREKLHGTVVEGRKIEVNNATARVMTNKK
Oligonucleotide | RBNS enrichment (R)
GUAGCCAUUUUCUAGUUAACUCAUGUAAACAAGUAAGAGUAACAUAACAGUAUUACCCUUUCACUGUUCUCACAGGACAUGUACCUAAUUAUGGUACUUAUUUAUGUAGU | 0.359
AAAGGUAUUCUUAAGAAUUUGCAGGUACUACAGAUUUUCAAAACUGAAUGAGAGAAAAUUGUAUAACCAUCCUGCUGUUCCUUUAGUGCAAUACAAUAAAACUCUGAAAU | 1.29
UUGUAACAGGCUUUUAUUUCCAGGUAAUAUGUCUUGGAAGACUUAAUUCUGAUUAGAGAUAUAGAUAUUACUGGAAACUAAUUGUUUUUUUUCUAUUGUACUCUGCUUUA | 0.485
UAAAUUCCCAGAAAUUCAGUGUUUAGACGAGGGAAUUUAAUUCCUAUUUUGUCCAUGUUGGUGAUGUACUGUACUUCCCUUCCUUUUCUCUGCAUCCCCCAUCACCUCAU | 2.77
UUUAUGCCCCCAUUUUCCUUUUUUUGUAUCUACACCCACACGAUUCCCAAUGUUGGAUAUUUCUACAUGAAUAAAGCAAGGAUCAGUGCCUCUUAUGUAAUUAACGCUCC | 0.797
UUUUCUGACAGUAUUAUGUAAUUUUUUAGCGUGGGUAGAUGGGAGUGUCGCUUGUAUGUUAUCGUACAGCUGACAUGUAUUUUUGUCUAUUCUUUAUUAUCUUAGUUUCA | 0.447
GCAGAGGCCAUUUUGUUGUUUGUUUGAUGCUGAAGCUGUUGUUAAAAUGCCCCAAACUCCAAGGCAGAUUGUCUGUAUAAUACGCUAUAGCUUUUCACCAUGUGGUGUUU | 1.03
UGGAAAGGUAAUUUAUGAUUAACUUAGAUAAUAGGUAAAAGCGACCUUACAAAAAACAUAAUUAUCUAGGAGUCCCACAUACUGGACCUACCCUAUUAUACCUCCAAGAG | 0.37

Series 3
Target: Histone acetyltransferase KAT6A, winged helix 2, GST fusion (KAT6A, Homo sapiens, UniProt Q92794, residues 85-181)
Method: protein binding microarray
Form: double-stranded DNA, one strand shown
Medium: in vitro
Concentration: not given
Setting: 8-mer, flanks averaged, mean of 2 arrays, mostly near background
Reference: not given
Direction: higher = stronger binding
Target sequence (chain): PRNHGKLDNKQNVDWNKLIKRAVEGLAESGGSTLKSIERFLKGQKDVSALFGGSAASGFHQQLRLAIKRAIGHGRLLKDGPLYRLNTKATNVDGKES
Oligonucleotide | E-score
ACTCAGGC | 0.111
TCTCAAAA | 0.043
ACTTCTCC | 0.018
ACTGGTCA | -0.0272
GTGCAATA | -0.168
AGACAAGA | -0.0608
GTCGGTTA | -0.109
ACAAGTGA | -0.139
GGATAAGA | -0.266
GGGTATAA | -0.00797
GATCTAGA | -0.102
GATTTCAA | 0.00945
ACGGCCAC | 0.113
CCCGACCA | 0.151
CATGGATC | -0.157
CAGATACC | -0.0796
GGACGTTA | -0.124
GTAAACAC | -0.0846
CAATGTCA | -0.00695
ATAGTGGA | -0.0774
ACCGCGAC | 0.202
CGACGTCA | 0.103
AAACTTAA | 0.123
TAGGAATA | -0.0557
CATACACG | 0.0566

Series 4
Target: Fragile X messenger ribonucleoprotein 1, C-terminal low-complexity region (Fmr1, Mus musculus, UniProt P35922)
Method: RNA Bind-n-Seq
Form: RNA
Medium: in vitro
Concentration: 200 nM
Setting: whole 134-nt RNA, ends assumed
Together with: 150 mM KCl
Reference: input library
Direction: higher = stronger binding
Shared flanks, not repeated: GGGAGUUCUACAGUCCGACGAUC … UGGAAUUCUCGGGUGUCAAGG
Oligonucleotide | log2 enrichment
GCAGGAAGUUAAAACAAAUGGAAAUGCUUCGGAUAGUGGCAGGGGUGGGGGUUGCUAAGGAAAGGGUGGGAUGGGAGUGGGUAAAGAGUU | 0.429
CCUGUGCUACACAUCGUAUGUACCGAAUCGGGCCCCCCGGGGCCCCCCGGCCCCCCGGGGAAAGUAUUAUGUUACGCCGUUCGGAUCUGC | -0.611
UGUGCUACACAUCGUAUGUACCGAAUCGGGUUUUUUUGGGGUUUUUUUGGGGUUUUUUUGGGGAAAGUAUUAUGUUACGCCGUUCGGAUC | 0.196
ACCAUGCAGGUGGGCAUCUUUGGGAAGUGGGGCAAAGGGGGGAUAGGGAGGGGGGUAACACUUUGGGAACAGGUGGUCCCAGGUCGUUUC | 0.787
UCCUCAAGUCCUGUGCUACACAUCGUAUGUACCGAAUCGGGAGGGAGGGAGGAAAGUAUUAUGUUACGCCGUUCGGAUCUGCACUUCCAG | 1.53
UCAAGUCCUGUGCUACACAUCGUAUGUACCGAAUCGGAAAAAAAGGUUUGGUGGAAAGUAUUAUGUUACGCCGUUCGGAUCUGCACUUCC | -0.845
UGGCCCUGGUGGCAUGCGGGGAGGAAGAGGUGGCCUCAUGGAUCCUGGUGGUCCCGGUGGAAUGUUCAGAGGUGGCCGUGGUGGAGACAG | -0.0456
GCAGGAAGUAAAAACAAAUGGAAAUGCUUCGGAUAGUGGUAGGGGUGGGGGUUGCUAAGGAAAGGGUGGGAUGGGAGUGGGUAAAGAGUU | 0.207
GUCAAGUGCUUCUGCUCCUGAUGUGGAUGACCCAGAGGCAUUCCCAGCUCUGGCUUAACUGGAUGCCAUAAGACAACCCUGGUUCCUUUG | 0.214
